Assay results pooled from the literature.
Parts stem from different laboratories: compare values within a part only.

Sample 1
Target: RING finger protein unkempt homolog, zinc fingers 1-6, GST-SBP tag (UNK, Homo sapiens, UniProt Q9C0B0, residues 30-357)
Method: RNA Bind-n-Seq
Molecule type: RNA
Matrix: in vitro
Tested at: not given
Setting: RNA with constant flanks, human and mouse sites, ends assumed
Reference: input RNA pool
Reading: higher = stronger binding
Quantity: bound/input enrichment
Target sequence (chain): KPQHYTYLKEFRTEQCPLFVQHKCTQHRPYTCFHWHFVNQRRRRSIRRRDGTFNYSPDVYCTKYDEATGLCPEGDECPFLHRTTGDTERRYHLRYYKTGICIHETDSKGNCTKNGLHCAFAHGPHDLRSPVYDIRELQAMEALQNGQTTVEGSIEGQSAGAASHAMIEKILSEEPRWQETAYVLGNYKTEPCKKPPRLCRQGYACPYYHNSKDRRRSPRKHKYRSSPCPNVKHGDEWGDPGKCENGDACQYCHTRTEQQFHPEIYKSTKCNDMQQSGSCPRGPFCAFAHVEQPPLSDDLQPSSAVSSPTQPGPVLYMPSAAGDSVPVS
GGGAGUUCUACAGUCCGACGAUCCAGAUUUUGAAAACGUUGAUGGAAGAAACAACACGUCAGCAGAGCAUGAUACGGGAGCUCAUAGAGACCAACCAGCAACUGAAAAGUGAACUUCAGCUAGAACAGAACCGAGCGGCACACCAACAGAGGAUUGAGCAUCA: 0.423 ratio
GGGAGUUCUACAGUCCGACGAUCUUUUCUAAGUUCCAGAAUAAUAGUGUCAUUAUUAUAGACUAUAUGUUUUGAAGUUUGAUAUUAUAAUGGGAUAUUCAUUUUUUGUUCUUUUCUUGACUCCUUUCUCAAGUGUGUGAUAAGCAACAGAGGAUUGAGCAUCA: 0.413 ratio
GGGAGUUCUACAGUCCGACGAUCAAUGGGCGGCUGGGACAGGGGAACGCUUGCAGGAUGGACCCCCUACCCCAAGAAUGGAAGUUAGGGGUGGUUGUUUCUCCAUUUAUGGCAUUGGGUUCGGAGAUGGGCCAUGAUGAAGGGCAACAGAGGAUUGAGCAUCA: 0.353 ratio
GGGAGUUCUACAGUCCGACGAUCGAGUCCUAGGAUGUUUCUCUUGCCUCCUUCUUGCUUUUUUCCUUUCCCCCAGUAGAGACCUAGCAAAGCUUUACAAAGCCCCUGAAAGUAGAUCCCAGAGAGAAAGUUUGCAGUCAGGUGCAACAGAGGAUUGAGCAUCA: 0.585 ratio
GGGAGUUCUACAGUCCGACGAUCAGCAUGAAGCUGUUCGAUAGCAUCUGUAACAACAAGUGGUUUACAGACACGUCCAUCAUCCUUUUCCUCAACAAGAAGGACCUCUUCGAAGAAAAAAUAAAAAAGAGCCCCCUCACGAUACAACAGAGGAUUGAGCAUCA: 0.317 ratio
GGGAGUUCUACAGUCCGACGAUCACACCUAGUGACCGUUCCAGAUAUAGAUUAGAUUUGGAAGGAAAUGAGUAUCCUAUUCAUAGUACCCCAAACUGUCAUGACCAUGAACGCAACCAUAAAGUGCCUCCACCUAUUAAACCUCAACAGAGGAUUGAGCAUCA: 0.521 ratio
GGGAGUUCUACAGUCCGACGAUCCCCAGGCGUGUUUCAGCUGCUGGUGUAGUUAUUUGAGGCGAGCUUUAACUCUGCUCCUGGUUCCUUUGCAUUCUGGUGAAGCCAAGCAGCGCUCACUCAGUGUUCUUCAUUCAGUGCAACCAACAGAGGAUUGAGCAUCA: 0.241 ratio
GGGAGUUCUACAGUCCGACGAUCUCCUAUGUGGACGUUGGCACUGGGAAGGUCACUCUGGAAUAUAGACCCGUGAUCGACAAAACUUUGAACGAGGCUGACUGUGCCACCGUCCCGCCAGCCAUUCGCUCCUACUGAUGAGACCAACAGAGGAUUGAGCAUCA: 0.0764 ratio

Sample 2
Target: Phosphate system positive regulatory protein PHO4, full length, GST-tagged (PHO4, Saccharomyces cerevisiae, UniProt P07270, residues 1-312)
Method: competition protein-binding microarray
Molecule type: double-stranded DNA, one strand shown
Matrix: in vitro
Tested at: 2 µM
Setting: whole 60-bp probe, lowest competitor level
Together with: Cbf1 competitor, 0.05 µM
Reading: higher = stronger binding
Quantity: fluorescence intensity
Target sequence (chain): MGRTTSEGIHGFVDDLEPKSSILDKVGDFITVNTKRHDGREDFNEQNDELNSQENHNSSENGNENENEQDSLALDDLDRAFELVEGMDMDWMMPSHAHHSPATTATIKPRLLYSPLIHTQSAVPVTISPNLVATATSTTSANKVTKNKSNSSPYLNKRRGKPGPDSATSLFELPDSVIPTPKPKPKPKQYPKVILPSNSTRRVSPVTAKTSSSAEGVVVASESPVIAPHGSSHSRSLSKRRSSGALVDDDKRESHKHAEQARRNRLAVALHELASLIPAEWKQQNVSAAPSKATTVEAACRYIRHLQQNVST
GGAAACAGCTACCCCGGCGTGCCGAGTGGCTCTCTGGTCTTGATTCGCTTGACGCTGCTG: 6700 a.u.
CGGTCATCGGGCGCGCTCGTGGACGATGACAAGCGCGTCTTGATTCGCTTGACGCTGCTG: 7280 a.u.
TTTGTTTACTAAAAACACATGTGTGTATCTTGACTGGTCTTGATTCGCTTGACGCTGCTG: 11600 a.u.
TGCGCAACAACTTGTCACTTGACTTTATGTCTAGAAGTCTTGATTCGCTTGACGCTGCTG: 3400 a.u.
CTTTCCCGATCTTGTTTTGTGGGTGTAGCACATTTGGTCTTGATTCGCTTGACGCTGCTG: 4630 a.u.
TTGATGTACTTGTCTCACGTGGAAGCAACCATTTTGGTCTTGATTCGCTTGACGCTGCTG: 13800 a.u.
CATACCCAACCTTGCCAGGTGGGTGAAGATATTTGTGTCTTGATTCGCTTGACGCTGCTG: 6140 a.u.
GTCTTGTCTCATTGCTGTGTGGGTGTCCCCACTTCAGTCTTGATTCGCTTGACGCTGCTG: 5560 a.u.
TTGGTAGAATCTTTGCATGTGTGAGGTATGAATATTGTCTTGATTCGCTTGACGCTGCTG: 8530 a.u.
CCCACAAAGGGGCGCCGCGTGGTGATACGTACTGGAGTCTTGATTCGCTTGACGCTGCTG: 10500 a.u.
CGTCCTAGCGATTCGCACGTGTTTTCCATGAGGAAGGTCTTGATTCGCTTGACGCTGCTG: 17100 a.u.
AAGACCCCGGTAAAATTCGTGACGGATCATCGCCTAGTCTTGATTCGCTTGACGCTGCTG: 3050 a.u.
AAAGCGGTAATTTGCTTGGTGGGTGCAGATATCTATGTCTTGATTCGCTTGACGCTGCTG: 3550 a.u.
TTCCCAAGTATTGGACACGGGGCTGGAACTTGGAATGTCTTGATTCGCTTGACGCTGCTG: 8510 a.u.
AAAGCGGTAATTTGAGAAGTGGGTGCAGATATCTATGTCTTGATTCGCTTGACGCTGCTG: 4100 a.u.
TCTTGGAATTGCGACCACGTGCAAACCTACGTCTGCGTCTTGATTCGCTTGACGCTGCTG: 15000 a.u.
AGGCCACCGGGAAGTCACGTGGCCGGCTGCTGCCTCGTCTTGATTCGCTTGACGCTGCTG: 13900 a.u.
CACAAAGGTTCGTTGACCGTGCCGAGGAACTTCCGCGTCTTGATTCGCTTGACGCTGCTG: 6080 a.u.
CCGTCCTTTTCACTTCACGTTCGCAGGGCTTTCCTGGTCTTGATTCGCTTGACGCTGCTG: 7450 a.u.

Sample 3
Target: Prothrombin, mature alpha-thrombin (F2, Homo sapiens, UniProt P00734)
Method: aptamer microarray, sandwich
Molecule type: DNA with 2'F-ANA
Matrix: in vitro
Tested at: 200 nM
Setting: whole 15-mer aptamer, many near background
Together with: Cy3 exosite-II aptamer, 400 nM
Reading: higher = stronger binding
Quantity: mean fluorescence intensity
Sequence: GGTTGGTGTGGTTGG
2'F-ANA at 3 5 6 7 8 9 11: 101 a.u.
2'F-ANA at 3 5 6 9 10 13: 49.4 a.u.
2'F-ANA at 1 2 6 7 8 9 10 12 15: 68.9 a.u.
2'F-ANA at 2 4 6 8 9 12 15: 521 a.u.
2'F-ANA at 1 3 6 8 9 10 12 14: 64 a.u.
2'F-ANA at 1 2 3 7 8 10 13: 62.4 a.u.
2'F-ANA at 6 7 9 12: 765 a.u.
2'F-ANA at 1 3 4 8 12 14 15: 115 a.u.
2'F-ANA at 2 3 5 7 8 9 10 11 12 13 14 15: 58.2 a.u.
2'F-ANA at 4 7 8 11 13 15: 253 a.u.
2'F-ANA at 1 2 5 6 9 13 14 15: 95.1 a.u.
2'F-ANA at 2 3 7 9 10 11 13 15: 310 a.u.
2'F-ANA at 1 4 6 8 9 10 11: 48.6 a.u.
2'F-ANA at 3 6 8 10 13: 468 a.u.
2'F-ANA at 3 5 6 9 10 11 15: 52.6 a.u.
2'F-ANA at 6 9 10: 147 a.u.
2'F-ANA at 3 5 6 7 9 10 12 13: 61.6 a.u.
2'F-ANA at 2 5 7 10 11 12 13 14: 45.3 a.u.
2'F-ANA at 2 3 4 7 8 9 10 14: 201 a.u.
2'F-ANA at 1 2 6 7 8 10 11 13 15: 65.4 a.u.
2'F-ANA at 2 10 11 12: 178 a.u.
2'F-ANA at 2 3 4 6 7 8 10: 210 a.u.
2'F-ANA at 2 3 8 9 10 11 12 13 14 15: 285 a.u.
2'F-ANA at 2 4 6 7 9 10 11 12: 103 a.u.
2'F-ANA at 1 6 9 10 11 12 13 15: 72.7 a.u.

Sample 4
Target: Transcription factor Sp1 (SP1, Homo sapiens, UniProt P08047, residues 1-785, full length assumed)
Chain of UniProt P08047 (whole entry, looked up): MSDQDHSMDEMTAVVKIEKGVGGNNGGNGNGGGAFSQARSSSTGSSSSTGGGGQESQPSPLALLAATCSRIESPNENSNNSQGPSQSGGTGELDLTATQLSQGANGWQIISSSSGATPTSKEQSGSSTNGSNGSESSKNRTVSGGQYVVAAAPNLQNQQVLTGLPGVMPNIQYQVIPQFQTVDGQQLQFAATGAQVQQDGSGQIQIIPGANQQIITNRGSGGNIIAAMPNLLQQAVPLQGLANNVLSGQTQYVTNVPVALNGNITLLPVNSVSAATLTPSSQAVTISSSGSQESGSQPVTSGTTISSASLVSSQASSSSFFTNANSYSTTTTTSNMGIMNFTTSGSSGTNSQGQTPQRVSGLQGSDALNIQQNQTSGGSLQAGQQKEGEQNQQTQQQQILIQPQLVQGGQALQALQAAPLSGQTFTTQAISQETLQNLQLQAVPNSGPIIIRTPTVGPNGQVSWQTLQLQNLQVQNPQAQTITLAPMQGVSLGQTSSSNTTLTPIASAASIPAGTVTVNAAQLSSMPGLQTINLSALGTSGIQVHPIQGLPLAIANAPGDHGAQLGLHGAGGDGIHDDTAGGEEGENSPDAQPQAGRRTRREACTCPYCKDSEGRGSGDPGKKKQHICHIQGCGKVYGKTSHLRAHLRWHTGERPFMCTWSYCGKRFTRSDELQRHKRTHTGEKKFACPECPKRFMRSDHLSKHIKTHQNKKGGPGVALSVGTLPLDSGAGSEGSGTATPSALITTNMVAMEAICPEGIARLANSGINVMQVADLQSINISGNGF
Method: protein-binding microarray
Molecule type: double-stranded DNA, one strand shown
Matrix: in vitro
Tested at: not given
Setting: k-mer, scored over probes, only values ≥0.25
Reading: higher = stronger binding
Quantity: E-score
AGGGTGGG: 0.456
ACGTCCCC: 0.3
CCCCATAA: 0.271
GGGGATTA: 0.3
ACCCCTCA: 0.344
CCTAATCA: 0.28
ATATGGGG: 0.251
GGGATGTA: 0.252
ATAACGTG: 0.293
ATACAACA: 0.268
ATCCCCTC: 0.278
CCCACCTA: 0.359
GCCCCACC: 0.416
GACCCCAC: 0.252

Excerpt of the above (sample 3):
2'F-ANA at 2 5 7 10 11 12 13 14: 45.3 a.u.
2'F-ANA at 3 6 8 10 13: 468 a.u.
2'F-ANA at 3 5 6 7 8 9 11: 101 a.u.
2'F-ANA at 2 4 6 7 9 10 11 12: 103 a.u.
